# Published values pooled from the literature.
# Parts stem from different laboratories: compare values within a part only.
# Sequence of UniProt O75747 (whole entry, looked up): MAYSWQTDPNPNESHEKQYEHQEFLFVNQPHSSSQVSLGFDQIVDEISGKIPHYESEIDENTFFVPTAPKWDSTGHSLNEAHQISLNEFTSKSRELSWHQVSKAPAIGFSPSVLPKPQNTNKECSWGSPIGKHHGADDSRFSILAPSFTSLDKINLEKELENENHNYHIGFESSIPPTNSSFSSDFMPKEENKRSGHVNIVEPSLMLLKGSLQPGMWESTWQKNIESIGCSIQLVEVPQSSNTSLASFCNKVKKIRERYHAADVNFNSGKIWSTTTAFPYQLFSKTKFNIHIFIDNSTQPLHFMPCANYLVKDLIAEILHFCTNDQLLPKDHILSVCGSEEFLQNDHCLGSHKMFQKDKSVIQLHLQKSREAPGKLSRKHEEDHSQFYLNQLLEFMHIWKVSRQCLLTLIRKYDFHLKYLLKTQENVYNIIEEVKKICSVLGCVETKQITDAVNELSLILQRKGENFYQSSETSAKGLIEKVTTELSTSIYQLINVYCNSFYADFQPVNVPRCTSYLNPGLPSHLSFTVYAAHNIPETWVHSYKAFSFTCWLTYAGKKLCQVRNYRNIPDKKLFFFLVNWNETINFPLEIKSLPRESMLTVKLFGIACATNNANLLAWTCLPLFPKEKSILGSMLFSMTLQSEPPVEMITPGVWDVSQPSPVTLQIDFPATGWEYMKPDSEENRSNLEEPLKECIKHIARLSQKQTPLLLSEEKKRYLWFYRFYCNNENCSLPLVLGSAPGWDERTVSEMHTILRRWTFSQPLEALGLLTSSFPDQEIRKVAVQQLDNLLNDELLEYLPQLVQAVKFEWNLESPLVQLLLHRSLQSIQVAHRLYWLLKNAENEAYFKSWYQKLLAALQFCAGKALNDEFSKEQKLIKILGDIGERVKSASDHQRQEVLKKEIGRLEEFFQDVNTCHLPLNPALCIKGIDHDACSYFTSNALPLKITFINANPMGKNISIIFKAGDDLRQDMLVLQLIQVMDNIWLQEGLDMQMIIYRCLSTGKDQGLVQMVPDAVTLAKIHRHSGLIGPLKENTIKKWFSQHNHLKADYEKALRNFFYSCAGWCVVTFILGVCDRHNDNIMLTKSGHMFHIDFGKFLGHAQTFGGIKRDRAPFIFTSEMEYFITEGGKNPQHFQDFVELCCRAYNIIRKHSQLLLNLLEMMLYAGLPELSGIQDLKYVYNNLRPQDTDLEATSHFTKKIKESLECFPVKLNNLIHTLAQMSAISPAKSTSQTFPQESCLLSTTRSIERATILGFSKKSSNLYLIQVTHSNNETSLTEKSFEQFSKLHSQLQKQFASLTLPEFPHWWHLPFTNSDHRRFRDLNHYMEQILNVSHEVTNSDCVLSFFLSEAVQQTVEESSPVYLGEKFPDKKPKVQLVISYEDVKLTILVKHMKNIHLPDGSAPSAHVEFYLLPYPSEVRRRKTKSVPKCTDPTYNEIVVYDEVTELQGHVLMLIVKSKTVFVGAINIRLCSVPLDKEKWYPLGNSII
# Sequence of UniProt P42685 (whole entry, looked up): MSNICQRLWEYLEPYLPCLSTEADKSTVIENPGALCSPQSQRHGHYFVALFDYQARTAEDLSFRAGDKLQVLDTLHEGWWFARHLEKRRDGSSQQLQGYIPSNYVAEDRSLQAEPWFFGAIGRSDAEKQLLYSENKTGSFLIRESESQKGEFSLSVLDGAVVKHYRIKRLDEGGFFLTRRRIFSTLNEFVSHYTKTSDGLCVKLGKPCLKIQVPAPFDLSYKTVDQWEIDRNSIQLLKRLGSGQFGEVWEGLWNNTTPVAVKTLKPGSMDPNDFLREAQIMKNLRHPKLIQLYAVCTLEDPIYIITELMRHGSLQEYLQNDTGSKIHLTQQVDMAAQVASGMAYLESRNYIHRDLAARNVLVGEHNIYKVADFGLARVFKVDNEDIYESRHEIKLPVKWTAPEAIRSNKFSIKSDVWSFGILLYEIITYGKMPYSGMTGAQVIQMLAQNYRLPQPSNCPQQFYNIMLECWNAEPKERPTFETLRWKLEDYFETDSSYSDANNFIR
# Sequence of UniProt Q9BX84 (whole entry, looked up): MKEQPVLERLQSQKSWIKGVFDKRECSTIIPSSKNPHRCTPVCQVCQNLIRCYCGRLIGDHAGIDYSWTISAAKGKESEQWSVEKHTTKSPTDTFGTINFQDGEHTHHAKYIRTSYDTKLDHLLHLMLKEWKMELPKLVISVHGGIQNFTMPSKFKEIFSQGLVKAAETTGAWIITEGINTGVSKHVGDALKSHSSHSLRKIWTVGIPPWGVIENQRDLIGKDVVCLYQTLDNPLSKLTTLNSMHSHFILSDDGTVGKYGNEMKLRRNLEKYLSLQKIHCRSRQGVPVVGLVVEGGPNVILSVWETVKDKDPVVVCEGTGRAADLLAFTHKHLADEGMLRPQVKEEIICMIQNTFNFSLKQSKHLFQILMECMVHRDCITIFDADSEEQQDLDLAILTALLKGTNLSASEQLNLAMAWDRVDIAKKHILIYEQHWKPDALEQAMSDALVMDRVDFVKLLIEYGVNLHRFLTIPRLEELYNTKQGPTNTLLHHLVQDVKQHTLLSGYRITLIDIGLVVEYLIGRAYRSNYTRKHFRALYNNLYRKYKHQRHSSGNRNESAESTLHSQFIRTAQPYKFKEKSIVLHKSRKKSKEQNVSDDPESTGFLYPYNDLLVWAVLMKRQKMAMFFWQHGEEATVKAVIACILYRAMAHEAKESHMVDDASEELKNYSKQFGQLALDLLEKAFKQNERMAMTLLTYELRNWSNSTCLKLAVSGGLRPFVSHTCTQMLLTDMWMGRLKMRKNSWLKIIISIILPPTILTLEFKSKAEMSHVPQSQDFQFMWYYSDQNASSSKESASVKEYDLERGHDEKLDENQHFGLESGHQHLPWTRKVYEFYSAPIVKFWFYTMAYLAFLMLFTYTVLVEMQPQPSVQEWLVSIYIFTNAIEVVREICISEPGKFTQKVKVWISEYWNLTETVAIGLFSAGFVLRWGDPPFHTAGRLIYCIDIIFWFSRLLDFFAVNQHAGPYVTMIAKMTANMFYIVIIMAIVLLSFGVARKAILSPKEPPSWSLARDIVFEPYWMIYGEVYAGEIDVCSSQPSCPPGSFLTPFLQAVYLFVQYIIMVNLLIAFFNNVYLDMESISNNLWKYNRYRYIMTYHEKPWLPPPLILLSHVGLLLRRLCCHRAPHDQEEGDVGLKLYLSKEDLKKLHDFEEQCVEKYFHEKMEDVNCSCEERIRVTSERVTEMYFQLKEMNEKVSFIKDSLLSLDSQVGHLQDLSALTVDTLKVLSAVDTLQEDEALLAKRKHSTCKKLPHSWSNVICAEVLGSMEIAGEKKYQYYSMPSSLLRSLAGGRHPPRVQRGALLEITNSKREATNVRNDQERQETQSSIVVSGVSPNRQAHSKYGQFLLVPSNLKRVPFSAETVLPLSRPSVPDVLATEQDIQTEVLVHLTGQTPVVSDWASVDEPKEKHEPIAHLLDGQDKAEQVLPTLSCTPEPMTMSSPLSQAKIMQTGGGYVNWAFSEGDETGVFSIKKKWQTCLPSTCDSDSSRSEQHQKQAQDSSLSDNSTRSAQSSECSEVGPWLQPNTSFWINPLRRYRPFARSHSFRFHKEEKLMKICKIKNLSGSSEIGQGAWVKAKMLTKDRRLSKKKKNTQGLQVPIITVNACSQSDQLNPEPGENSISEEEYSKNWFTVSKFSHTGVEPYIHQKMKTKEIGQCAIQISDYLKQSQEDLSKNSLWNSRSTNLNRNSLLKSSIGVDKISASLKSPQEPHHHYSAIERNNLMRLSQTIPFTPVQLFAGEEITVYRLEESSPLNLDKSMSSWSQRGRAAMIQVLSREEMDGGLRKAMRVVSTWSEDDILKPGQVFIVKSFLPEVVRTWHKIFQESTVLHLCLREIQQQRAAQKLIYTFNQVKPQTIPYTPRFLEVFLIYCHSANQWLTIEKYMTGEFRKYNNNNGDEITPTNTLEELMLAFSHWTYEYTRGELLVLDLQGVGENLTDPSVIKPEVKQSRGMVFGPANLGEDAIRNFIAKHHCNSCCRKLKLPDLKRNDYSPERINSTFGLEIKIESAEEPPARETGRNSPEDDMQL
# Sequence of UniProt Q9UEE5 (whole entry, looked up): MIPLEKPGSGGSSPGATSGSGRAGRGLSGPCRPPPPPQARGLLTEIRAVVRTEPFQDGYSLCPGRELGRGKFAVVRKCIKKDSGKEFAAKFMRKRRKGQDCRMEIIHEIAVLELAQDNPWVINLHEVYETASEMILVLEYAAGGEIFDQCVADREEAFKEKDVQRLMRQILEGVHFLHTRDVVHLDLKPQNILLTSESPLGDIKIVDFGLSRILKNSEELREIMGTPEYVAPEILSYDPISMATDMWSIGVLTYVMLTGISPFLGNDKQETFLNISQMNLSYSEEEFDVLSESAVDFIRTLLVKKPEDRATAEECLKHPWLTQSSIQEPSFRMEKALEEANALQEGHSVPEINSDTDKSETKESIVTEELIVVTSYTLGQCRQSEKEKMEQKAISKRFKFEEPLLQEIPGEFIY

# Set 1
# Target: Sal-like protein 4, full length isoform B (SALL4, Homo sapiens, UniProt Q9UJQ4-2, residues 1-616)
# Method: universal PBM
# Molecule type: double-stranded DNA, one strand shown
# Matrix: in vitro
# Concentration: not given
# Setting: 8-mer, flanks averaged, mean of replicates
# Reading: higher = stronger binding
Oligonucleotide,E-score
AACGCGGA,-0.178
CCCCGAGA,-0.131
GCTCGCGA,-0.0693
CACTCTGG,-0.192
CGAGAACG,-0.0902
ATCCTCTG,-0.045
CGGCTGAC,-0.248
CCCGAGCA,-0.104

# Set 2
# Target: SRSF protein kinase 2 (SRPK2, Homo sapiens, UniProt P78362)
# Sequence of UniProt P78362 (whole entry, looked up): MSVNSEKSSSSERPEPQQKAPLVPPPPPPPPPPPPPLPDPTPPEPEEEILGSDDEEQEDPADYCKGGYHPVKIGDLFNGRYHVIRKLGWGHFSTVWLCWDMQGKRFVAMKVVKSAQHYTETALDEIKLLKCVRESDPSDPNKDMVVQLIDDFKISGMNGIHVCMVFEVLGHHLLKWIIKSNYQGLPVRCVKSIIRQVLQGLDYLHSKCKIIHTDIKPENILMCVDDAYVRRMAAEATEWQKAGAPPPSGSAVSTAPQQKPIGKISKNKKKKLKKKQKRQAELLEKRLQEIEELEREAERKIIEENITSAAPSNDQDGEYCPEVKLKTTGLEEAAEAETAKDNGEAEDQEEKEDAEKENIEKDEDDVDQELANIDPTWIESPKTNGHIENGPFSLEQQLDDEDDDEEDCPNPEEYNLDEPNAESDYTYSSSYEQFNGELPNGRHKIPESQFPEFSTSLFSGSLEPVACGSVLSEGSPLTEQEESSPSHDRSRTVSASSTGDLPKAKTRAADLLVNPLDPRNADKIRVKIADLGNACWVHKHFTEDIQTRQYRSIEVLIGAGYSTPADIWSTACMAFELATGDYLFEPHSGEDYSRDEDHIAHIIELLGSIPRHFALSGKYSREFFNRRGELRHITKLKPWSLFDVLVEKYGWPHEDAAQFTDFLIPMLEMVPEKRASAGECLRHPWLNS
# Read-out: enzyme activity
# Action: inhibitor
# Concentration: 0.5 µM
# Reference: control
SMILES,remaining activity [%]
O=C1NC(=O)C(c2cn(CCCO)c3ncccc23)=C1c1cnccn1,97.9
COc1cc2ncnc(Nc3ccc(Oc4ccccc4)cc3)c2cc1OC,101
O=c1c2ccccc2[nH]c(=S)n1CCN1CCC(=C(c2ccc(F)cc2)c2ccc(F)cc2)CC1,94.1
Cc1ccc(NC(=O)c2ccc(CN3CCN(C)CC3)cc2)cc1Nc1nc(-c2cccnc2)cs1,101
Cc1ccc(Nc2nccc(N(C)c3ccc4c(C)n(C)nc4c3)n2)cc1S(N)(=O)=O,104
Cn1sc(=O)n(Cc2ccccc2)c1=O,98.1
COc1cc2nccc(Oc3ccc(NC(=S)NC(=O)c4ccccc4C)cc3)c2cc1OC,93.4
Nc1ncnc2n[nH]c(Nc3ccc(F)cc3)c12,97.1
COc1cc2ncnc(Nc3ccc(F)c(Cl)c3)c2cc1OCCCN1CCOCC1,99.5
COc1ccc(C(=O)Nc2sc3c(c2C(N)=O)CCCC3)cc1OC,97.6
O=C(Nc1cccc(Nc2cc(Nc3cccc(C(F)(F)F)c3)ncn2)c1)C1CC1,92
O=S(=O)(c1cccc2cnccc12)N1CCCNCC1,83.9
Cc1nc(-c2ccccc2)c(-c2ccncc2)o1,92.3
Nc1ccc2ncnc(NCCc3ccc(Oc4ccccc4)cc3)c2c1,95.3
COc1ccc(OC)c2c(=S)c3ccccc3[nH]c12,95.1

# Set 3
# Compound: O=C(NC[C@@H]1[C@H]2CN(C(=O)OCc3cc(C(F)(F)F)cc(C(F)(F)F)c3)C[C@@H]12)c1ccc2[nH]nnc2c1
# Read-out: cell-free assay
# Method: competition with immobilised ligand
# Concentration: 1 µM
target,remaining binding [%]
"MYLK3 (Homo sapiens, UniProt Q32MK0)",98
"FRK (Homo sapiens, UniProt P42685)",83
"PRKCE (Homo sapiens, UniProt Q02156)",100
"STK17A (Homo sapiens, UniProt Q9UEE5)",95
"PIK3C2G (Homo sapiens, UniProt O75747)",100
"PIK3CA (Homo sapiens, UniProt P42336, I800L)",83
"PIP4K2C (Homo sapiens, UniProt Q8TBX8)",100
"STK32B (Homo sapiens, UniProt Q9NY57)",100
"TRPM6 (Homo sapiens, UniProt Q9BX84)",92

# Set 4
# Target: RNA binding protein fox-1 homolog 2, RRM domain, GST-SBP tag (RBFOX2, Homo sapiens, UniProt O43251-10, residues 100-194)
# Method: RNA Bind-n-Seq
# Molecule type: RNA
# Matrix: in vitro
# Concentration: 365 nM
# Setting: natural RNA segment, single round, ends assumed
# Reference: no-protein control
# Reading: higher = stronger binding
# All sequences stand within: GGGAGUUCUACAGUCCGACGAUC … UGGAAUUCUCGGGUGCCAA
# Residues (chain): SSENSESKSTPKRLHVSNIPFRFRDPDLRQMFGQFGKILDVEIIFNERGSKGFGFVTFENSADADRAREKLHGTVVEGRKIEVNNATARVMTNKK
Oligonucleotide,RBNS enrichment (R)
GAAGCAGCUACCUAAUUGGCAGGCCAAGGAGGAGUGCUGUCUGUCCAAGAGGGGACCUGUGGCCAGAUACUUUCCACUUUAGGCUCACAGGGUUGAGUUGCAAAAGCCAC,0.396
UGUAGGCUUCCUUGCACAGAUGUUGCAGCCAGCCUCAGGAGUAAAGUGCCCGCUGACUGCUGCCGCCACCUCUGUCUCGCUCCCUGUCAGUGCUGCUGGCACGUGGGACG,0.324
CUGUCUGUAGUGAAUUCAAGUGGGAAAUUUUCAAAAGUUUCUCCUGCUGGAAAUAAGGUAUAAUUUGUAUUUUGCAGACAAUUCAGUAAAGUUACUGGCUUUCUUAGUGA,0.507
UUUUACCUGGCCUGUUCUGAUAAAGAGGCAUUUAUUAGCCAAGCAACCAUAAGACUCUAGUCAAAAGCACUCGUGCAGAUAUGCUGCAUAUGAGUAAGAAAUUGCAAUUU,0.496
UGACAUGUAUUGGGCCACUAGCAGGGAUUGAAAACAUUUUAAAAGAAAUCCUUUUUCUUAGGAGUAAAAGCUGGUAAAAGGGGUGACUUCCUGGUUCUGAUCAAAACCAG,0.847
UUUUCAAAUUGGUGGAAAAGAGAAACUGCAGGAAAACUAUUCAUGUUUGAGUUUUACGCAGUAUAUUUUUUCCACAAAACCUGUAAAGAUUUAAGUUAUUUUAAUUUAUU,1.62
CCAUCUGUACUUGGUCCAACUGCAACUCAUCAUCGGUGACUGGUUAUCACACCAUCGCUGGCCCCUUUGGGCCCUGCAUGUAGUGUGGGAGGCUCCUGUUAGCUCCUCAC,2.44
GCCACCACGUGACGCUGUUCUUAGUUCACUAAUGUUAGCCUUAUUUAGGACAAAGUCAGCCAGACACCUUGUACUGGGCACGCGUCAGACUGCAGCCAGUCCGUUUCCUU,0.32

# Excerpt of the above (set 3):
target,remaining binding [%]
"FRK (Homo sapiens, UniProt P42685)",83
"STK32B (Homo sapiens, UniProt Q9NY57)",100
